Measured values pooled from the literature.
Parts stem from different laboratories: compare values within a part only.

Sample 1
Target: Histone acetyltransferase KAT6A, winged helix 1, GST fusion (KAT6A, Homo sapiens, UniProt Q92794, residues 1-85)
Method: protein binding microarray
Form: double-stranded DNA, one strand shown
Matrix: in vitro
Concentration: not given
Setting: 8-mer, flanks averaged, mean of 2 arrays, mostly near background
Reference: not given
Reading: higher = stronger binding
Construct (chain): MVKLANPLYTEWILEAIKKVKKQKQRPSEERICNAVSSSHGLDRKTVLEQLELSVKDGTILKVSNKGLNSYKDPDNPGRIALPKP
For `ATAGGGTA`, the E-score was -0.159.
`CGGAGTAC` gave an E-score of 0.179.
The E-score of `AGTTGTCC` is reported as -0.103.
`AATATAAA` has an E-score of -0.0163.
The E-score of `CTCTGCCC` is reported as -0.179.
For `GGAACTGA`, the E-score was -0.0459.
`ATACATGG` gave an E-score of -0.197.
`GAAGCGAC` has an E-score of 0.132.
`CCCGACGA` has an E-score of 0.0906.
`CTGGAACA` gave an E-score of -0.225.
The E-score of `GGCGCGCC` is reported as 0.436.
`CTCACCAA` gave an E-score of -0.0762.
`ACGACAAG` has an E-score of -0.129.
`GCCATACC` has an E-score of -0.0157.
With `GTAAATAC` the E-score was 0.0791.
`AGGCCGAG` has an E-score of 0.0928.
`TATCGGGA` gave an E-score of -0.0375.
`AACGGGAA` gave an E-score of 0.204.
The E-score of `GCTATATA` is reported as 0.0191.

Sample 2
Target: RING finger protein unkempt homolog, zinc fingers 1-6, GST-SBP tag (UNK, Homo sapiens, UniProt Q9C0B0, residues 30-357)
Method: RNA Bind-n-Seq
Form: RNA
Matrix: in vitro
Concentration: not given
Setting: RNA with constant flanks, human and mouse sites, ends assumed
Reference: input RNA pool
Reading: higher = stronger binding
Construct (chain): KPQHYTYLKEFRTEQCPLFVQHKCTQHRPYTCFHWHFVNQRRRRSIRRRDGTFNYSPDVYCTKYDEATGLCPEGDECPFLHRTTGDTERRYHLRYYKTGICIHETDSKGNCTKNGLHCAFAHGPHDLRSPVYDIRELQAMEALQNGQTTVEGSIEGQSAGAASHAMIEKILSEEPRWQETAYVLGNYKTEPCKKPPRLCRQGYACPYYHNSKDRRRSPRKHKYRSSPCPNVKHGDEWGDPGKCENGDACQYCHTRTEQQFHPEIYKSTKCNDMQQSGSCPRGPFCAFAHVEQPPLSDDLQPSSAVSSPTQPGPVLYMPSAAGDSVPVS
With `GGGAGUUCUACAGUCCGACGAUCACCGAGGAGCAGAAGGGCCGAGUGGCCUUCGCUUCCAACUUCCUGGCAGGAGAUGCUUCCCUGCAGAUUGAGCCUCUGAAACCCAGUGAUGAAGGCAGAUACACCUGCAAGGUGAAGAAUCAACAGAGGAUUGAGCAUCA` the bound/input enrichment was 0.0914 ratio.
For `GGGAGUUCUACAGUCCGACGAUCGAACAGGAGCAGCAUAGGCUGUUUGAGCUUUGGGGAAAUGAACUUUGCUUUUUAUAUUUAACUAGGAUACUUUUAUAUGAUGGGUGCUUUGAGUGUGAAUGCAGCAGGCUCUCUUGUUUCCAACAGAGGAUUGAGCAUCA`, the bound/input enrichment was 63.1 ratio.
`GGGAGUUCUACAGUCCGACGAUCUCAGACAUCUACGUGUGCAUGAUCUCCUAUGCACACAACGUGGCGGCCCAGGGCAAGUACAUAGCUAUUGCCAGCACUACUGUGGAGACCACGGACCCUGAAAAGGAGGUGGAGCCGGCUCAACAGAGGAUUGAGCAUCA` gave a bound/input enrichment of 0.0869 ratio.
`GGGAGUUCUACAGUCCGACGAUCUCCCUUUAUCCACAGUUUAUGUUUCAUUUAAGAAGAUCUUCUUUCCUGCAAGUUUUUAACAAUAGUCCUGAUGAGAGUUCAUAUUAUCGUCACCAUUUUAUGCGUCAAGAUCUGACCCAGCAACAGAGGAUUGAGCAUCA` has a bound/input enrichment of 2.25 ratio.
For `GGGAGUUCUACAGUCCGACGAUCGAACAACAAAAAGAAAACAUGGAGAAUCUUAAAAGUCUAAAAAUUGAAGCAGAAAAUAAGUAUGAUACAAUUAAAUUGAAGAUUAAUCAGCUAUCAGAGCUAGCGGAUCCACUUAAGGAUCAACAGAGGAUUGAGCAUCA`, the bound/input enrichment was 0.529 ratio.
`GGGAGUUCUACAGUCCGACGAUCUGGGGCUCAUCUAAACUAGUUCCAGUGGGAUACGGAAUUAAGAAACUUCAAAUACAGUGUGUAGUUGAAGAUGAUAAAGUUGGAACAGAUAUGCUGGAGGAGCAGAUCACUGCUUUUGAGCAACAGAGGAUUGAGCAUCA` has a bound/input enrichment of 0.189 ratio.
The bound/input enrichment of `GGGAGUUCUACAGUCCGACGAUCGCGGGUGUACGGGGUUAUCUUGACAAACUGGAGCCCAGCAAGAUCACAAAGUUUGAGAAUGCUUUCUUGUCUCACGUUAUCAGCCAGCACCAGUCCCUCUUGGGCAAUAUCAGGUCUGAUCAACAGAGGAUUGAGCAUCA` is reported as 0.0756 ratio.
`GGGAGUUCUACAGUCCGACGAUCAUUGCCUCCAGUGUUACCUUGGACUGAGCCAGAAUGUGAUUUUCCUGAUGAAAAAGACUCAUACUGGGAAUUCUAGGGCUGCCAAAUCAUUUUAUGUCCUAUAUACUUGACACUUUCUCCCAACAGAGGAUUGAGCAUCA` gave a bound/input enrichment of 0.214 ratio.
The bound/input enrichment of `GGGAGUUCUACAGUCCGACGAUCGACGACCUGUUCCGCUUCAACAACAUUAACUUGGAUCCACUUACAGAAACUUAUGGGAUUCCUUUUUACUUACAGUACCUUGCGCACUGGCCAGAGUAUUUCAUCGUCGCUGAAGCACCUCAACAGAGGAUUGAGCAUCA` is reported as 0.222 ratio.
`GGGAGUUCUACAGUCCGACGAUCUGUUUCUCAAGGUUUACUCAGUUAACAGAUCACCAAAUUCAGCAGCUCAUUUUCACAGCUUGUAACCCUUGGUAAUAAUGUUGGAUGCCGGGGCCUAUGCAUGUUGACAUUCUGGUUGUCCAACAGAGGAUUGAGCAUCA` has a bound/input enrichment of 0.126 ratio.
`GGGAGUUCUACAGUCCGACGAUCUUUGGACAUCGGUUACAGGAAAACUUUUCCUUAGAUCUUCUCAAAACUGCAUUUGUUAAUAGCUGCUAUAUUAAAAGUGAGGAGGCCAAACGCCAACAACUUGGGAUAGAGAAAGAAGCUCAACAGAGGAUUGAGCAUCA` gave a bound/input enrichment of 1.15 ratio.

Sample 3
Target: Ras GTPase-activating protein-binding protein 1, full length (G3BP1, Homo sapiens, UniProt Q13283)
UniProt Q13283, sequence (whole entry, looked up): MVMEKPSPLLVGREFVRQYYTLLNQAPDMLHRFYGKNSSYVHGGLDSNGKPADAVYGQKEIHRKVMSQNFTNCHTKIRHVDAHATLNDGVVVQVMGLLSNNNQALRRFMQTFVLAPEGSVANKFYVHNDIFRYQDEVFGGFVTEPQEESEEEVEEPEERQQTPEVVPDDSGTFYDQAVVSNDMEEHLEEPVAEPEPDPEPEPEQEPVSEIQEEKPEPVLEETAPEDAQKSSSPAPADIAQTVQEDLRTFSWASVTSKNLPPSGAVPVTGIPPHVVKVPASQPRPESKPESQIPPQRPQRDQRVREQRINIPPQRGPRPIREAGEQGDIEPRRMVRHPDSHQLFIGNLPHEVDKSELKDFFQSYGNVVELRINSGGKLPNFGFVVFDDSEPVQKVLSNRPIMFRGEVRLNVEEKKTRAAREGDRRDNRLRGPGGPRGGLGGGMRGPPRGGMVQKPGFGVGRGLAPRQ
Method: RNA Bind-n-Seq
Form: RNA
Matrix: in vitro
Concentration: 200 nM
Setting: whole 134-nt RNA, ends assumed
Added: 150 mM LiCl
Reference: input library
Reading: higher = stronger binding
Each molecule: 7-deaza-guanosine replaces G
With `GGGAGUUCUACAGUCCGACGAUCGCAGGAAGUAAAAACAAAUGGAAAUGCUUCGGAUAGUGGCAGGGGUGGAAAUUGCUAAGGAAAGGGUGGGAUGGGAGUGGGUAAAGAGUUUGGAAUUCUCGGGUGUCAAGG` the log2 enrichment was 0.299.
`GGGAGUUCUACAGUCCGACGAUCUCAGGAAGUAAAAACAAAUGGAAAUGCUUCGGAUAGUGGCAGGGGUGGGGGUUGCUAAGGAAAGGGUGGGAUGGGAGUGGGUAAAGAGUUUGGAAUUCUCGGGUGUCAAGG` has a log2 enrichment of -0.455.
`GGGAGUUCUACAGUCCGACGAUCAGUCCUGUGCUACACAUCGUAUGUACCGAAUCGGGGCCCCGGGCCCCGGCCCCGGGGAAAGUAUUAUGUUACGCCGUUCGGAUCUGCACUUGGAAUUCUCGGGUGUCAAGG` has a log2 enrichment of -1.79.
With `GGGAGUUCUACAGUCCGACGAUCUUACUACCUCCGCCUUCAUUUCCGUCAGCAAUCCCGGCGCGGGCUCCCCGGCCCCCGCCAGCCCGCCUCCCCUCGCUGUGCCCGGGACCGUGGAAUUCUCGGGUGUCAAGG` the log2 enrichment was 1.64.
`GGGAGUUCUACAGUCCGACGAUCUUUCUUCUGCUGCUGCUAGUCAUGAGAUCAAGGUGGGUCUGAGAAUGGCCAUUCAGAGGCCCUGGAUAGUAACCAGGUAAUGGAUGACACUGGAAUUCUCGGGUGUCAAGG` gave a log2 enrichment of -0.0274.
With `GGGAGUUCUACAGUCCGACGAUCUAACUUUAGAGGAGGAUCUGAUGGAUAUGGCAGUGGACGUGGAUUUGGGGAUGGCUCUAAUGGGUAUGGAGGAGGACCUGGAGGUGGCAAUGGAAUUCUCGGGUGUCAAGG` the log2 enrichment was -0.425.
`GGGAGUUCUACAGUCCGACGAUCUGGGAGGUGGAUUUUGUUUAUUUUUUUAGCUCAUUUCCAGGGGUGGGAAUUUUUUUUUAAUAUGUGUCAUGAAUGAAGUUGUUUUUGAAAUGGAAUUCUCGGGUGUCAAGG` gave a log2 enrichment of -0.095.
With `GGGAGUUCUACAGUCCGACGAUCUUCCUCAAGUCCUGUGCUACACAUCGUAUGUACCGAAUCGGAGGUGGAGGAAAGUAUUAUGUUACGCCGUUCGGAUCUGCACUUCCAGCAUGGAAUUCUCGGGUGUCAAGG` the log2 enrichment was -1.55.
The log2 enrichment of `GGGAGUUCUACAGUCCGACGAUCAAGUCCUGUGCUACACAUCGUAUGUACCGAAUCGGGAAAGGGAAAGGGAAAAAGGGAAAGUAUUAUGUUACGCCGUUCGGAUCUGCACUUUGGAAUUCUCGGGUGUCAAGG` is reported as 0.262.
`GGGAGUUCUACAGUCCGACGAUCAAGUCCUGUGCUACACAUCGUAUGUACCGAAUCGGGUUUUUUUGGGAGGGAAAGGGAAAGUAUUAUGUUACGCCGUUCGGAUCUGCACUUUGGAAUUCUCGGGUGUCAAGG` gave a log2 enrichment of 0.181.
`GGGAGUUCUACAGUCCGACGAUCUGGCCCUGGUGGCAUGCGGGGAGGAAGAAGUGGCCUCAUGGAUCGUGGUGGUCCCGGUGGAAUGUUCAGAGGUGGCCGUGGUGGAGACAGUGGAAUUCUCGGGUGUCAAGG` has a log2 enrichment of 0.206.

Sample 4
Target: RNA binding protein fox-1 homolog 2, RRM domain, GST-SBP tag (RBFOX2, Homo sapiens, UniProt O43251-10, residues 100-194)
Method: RNA Bind-n-Seq
Form: RNA
Matrix: in vitro
Concentration: 365 nM
Setting: natural RNA segment, single round, ends assumed
Reference: no-protein control
Reading: higher = stronger binding
Residues (chain): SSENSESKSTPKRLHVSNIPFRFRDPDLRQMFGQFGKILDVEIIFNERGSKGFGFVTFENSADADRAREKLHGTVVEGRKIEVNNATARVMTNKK
`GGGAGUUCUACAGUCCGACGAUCGGCAUCACACCUGCCUCUGUUGGCUUUUUAGUUAGGAAGGAUCCAGCUAGGCCCGUGUGGUUAGAUCAGCUUUGUUACUGAAUUACCUAAAACCAGACCACAGCACAGCCUGGAAUUCUCGGGUGCCAA` — result for “RBNS enrichment (R)”: 0.42.
For `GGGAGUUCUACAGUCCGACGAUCUUUCUCACUGUGCUGCUGAGGUUCUGACCUGGUGUGUCUGACAUUGCAUCAGGCUUUGCAGAACAAAUGUGAUUCACUUAAACGUUCACACACAGCAACACUGAAAUCCUUGGAAUUCUCGGGUGCCAA`, “RBNS enrichment (R)” read 0.853.
Under “RBNS enrichment (R)”, `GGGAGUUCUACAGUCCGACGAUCCACAGAUGGUCGUCACGUGGGACCUGGAAUUGGAGACACUGCAGCGAGCAGCUAGAAAGCCUCUUGUGUUCCUGGCACCUCCUGGCACUUAUCUUGGGAAUGCCUGCAUGUGGAAUUCUCGGGUGCCAA` is recorded as 3.91.
For `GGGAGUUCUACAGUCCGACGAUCGCUGCAUUUUUGAAGCUGCCUGGCCCCCAGGGGCCCUGACCUGACCUCUCUCCUCUCCCCUCACCCUCCUGCCCCUGGCCACUGCAGGAUCAGGAGGGGAGAAGAAGGAGUGGAAUUCUCGGGUGCCAA`, “RBNS enrichment (R)” read 0.702.
`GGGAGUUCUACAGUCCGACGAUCACAAGCCACCCCUCCUGAGAGGCAGGGGGCCCUCCGCCCCCUCCCCAUGUAUUCCCCACCUGUGUUCCGUUUGACCAGCACAGAAAUAUUAAACGUCCUCUAUUCACCGGUGGAAUUCUCGGGUGCCAA` — result for “RBNS enrichment (R)”: 0.538.
`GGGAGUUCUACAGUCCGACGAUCACUAUCUCAGUUACCAGAAUCUUGCUGCUCAAGUUUCGAGUGAUCGACAAUGGAUUUUUAACCAAGACAUUUUUGUUUUUGGAAAAAAAAAAAAAAUCAAAUGCAGUGACUGGAAUUCUCGGGUGCCAA` — result for “RBNS enrichment (R)”: 0.6.
For `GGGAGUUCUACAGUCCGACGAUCGUAAUCUACCACCAAGCUUGUGGACUUCACCCCAACAAAAUUGUAAGCGUUGUUAGGUUUUUGUGUAAGAUUCUUGCUGUAGCGUGGAUAGCUGUGAUUGGUGAGUCAACUGGAAUUCUCGGGUGCCAA`, “RBNS enrichment (R)” read 1.04.
`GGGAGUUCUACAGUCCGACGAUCUUAGAGAGUCUGUCUUGAUUUGUGGUUUCAGAGACCCUAGAGAAAUUUGUACCAGUUUGUAUUAAAGUCAGUACUACCAGCACUUUGCCAAAACUACGGAUGUCAGAGGGUGGAAUUCUCGGGUGCCAA`: “RBNS enrichment (R)” 0.289.
`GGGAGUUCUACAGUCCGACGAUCGGCUCCAUCCUUCUACUUCAACCCUCAGAGGAGCAGACAGGUGCAAAUAAACAACAGACUUUAUUAACCUUCUGAAGCAGCUUUUUCCAUCUCCCGUCUUAGUCCUGUCCUGGAAUUCUCGGGUGCCAA`: “RBNS enrichment (R)” 0.508.

Some of these lines once more (sample 1):
`CGGAGTAC` gave an E-score of 0.179.
`ACGACAAG` has an E-score of -0.129.
The E-score of `GGCGCGCC` is reported as 0.436.
